Assay results collected from several papers.
Numbered parts are unrelated; each lists some results of a single study.

Block 1
Target: RNA binding protein fox-1 homolog 2, RRM domain, GST-SBP tag (RBFOX2, Homo sapiens, UniProt O43251-10, residues 100-194)
Method: RNA Bind-n-Seq
Molecule type: RNA
Medium: in vitro
Concentration: 365 nM
Notes: natural RNA segment, single round, ends assumed
Relative to: no-protein control
Direction: higher = stronger binding
Sequence	RBNS enrichment (R)
GGGAGUUCUACAGUCCGACGAUCGGCCAAGGAAUCCCGCAAUGUCACUAUGGAAACAGAUGAAUGGUUUGACAUGAAGACGACUGUUCCGUUAUUGGGAAGUAAUCAGCUUUUGAAACUGAGAGUGUUGGGAAUGGAAUUCUCGGGUGCCAA	7.02
GGGAGUUCUACAGUCCGACGAUCUUGGUUUUGGUUUUUUGUUCUUCAUACUCAAGUGUCUCCGUUGGUCCAGAUACUUCUCUGUGAAAGUGGCCUCUCUACAGGGUGCCGUUCUGUUUUUUCCCAGUAGUACAUGGAAUUCUCGGGUGCCAA	0.57
GGGAGUUCUACAGUCCGACGAUCGGAGGCUGGGCCAGGAGGCAGCCUCCGAACCAUGCCCCAUAUAACGCUUGGGUGCGUGGGAGGGCGCACAUCAGGGCAGAGGCCAAGUUCCAGGUGUCUGUGUUCCCAGGUGGAAUUCUCGGGUGCCAA	0.948
GGGAGUUCUACAGUCCGACGAUCUGGGUGGGCCUGACUGUUGCCCCCCAGGGUCCUAAAACUUGGAUGGACUUGUAUAGUGAGAGAGGAGGCCUGGACCGAGAUGUGAGUCCUGUUGAAGACUUCCUCUCUACUGGAAUUCUCGGGUGCCAA	0.748

Block 2
Target: Sal-like protein 4, full length isoform A (SALL4, Homo sapiens, UniProt Q9UJQ4, residues 1-1053)
UniProt Q9UJQ4, sequence (whole entry, looked up): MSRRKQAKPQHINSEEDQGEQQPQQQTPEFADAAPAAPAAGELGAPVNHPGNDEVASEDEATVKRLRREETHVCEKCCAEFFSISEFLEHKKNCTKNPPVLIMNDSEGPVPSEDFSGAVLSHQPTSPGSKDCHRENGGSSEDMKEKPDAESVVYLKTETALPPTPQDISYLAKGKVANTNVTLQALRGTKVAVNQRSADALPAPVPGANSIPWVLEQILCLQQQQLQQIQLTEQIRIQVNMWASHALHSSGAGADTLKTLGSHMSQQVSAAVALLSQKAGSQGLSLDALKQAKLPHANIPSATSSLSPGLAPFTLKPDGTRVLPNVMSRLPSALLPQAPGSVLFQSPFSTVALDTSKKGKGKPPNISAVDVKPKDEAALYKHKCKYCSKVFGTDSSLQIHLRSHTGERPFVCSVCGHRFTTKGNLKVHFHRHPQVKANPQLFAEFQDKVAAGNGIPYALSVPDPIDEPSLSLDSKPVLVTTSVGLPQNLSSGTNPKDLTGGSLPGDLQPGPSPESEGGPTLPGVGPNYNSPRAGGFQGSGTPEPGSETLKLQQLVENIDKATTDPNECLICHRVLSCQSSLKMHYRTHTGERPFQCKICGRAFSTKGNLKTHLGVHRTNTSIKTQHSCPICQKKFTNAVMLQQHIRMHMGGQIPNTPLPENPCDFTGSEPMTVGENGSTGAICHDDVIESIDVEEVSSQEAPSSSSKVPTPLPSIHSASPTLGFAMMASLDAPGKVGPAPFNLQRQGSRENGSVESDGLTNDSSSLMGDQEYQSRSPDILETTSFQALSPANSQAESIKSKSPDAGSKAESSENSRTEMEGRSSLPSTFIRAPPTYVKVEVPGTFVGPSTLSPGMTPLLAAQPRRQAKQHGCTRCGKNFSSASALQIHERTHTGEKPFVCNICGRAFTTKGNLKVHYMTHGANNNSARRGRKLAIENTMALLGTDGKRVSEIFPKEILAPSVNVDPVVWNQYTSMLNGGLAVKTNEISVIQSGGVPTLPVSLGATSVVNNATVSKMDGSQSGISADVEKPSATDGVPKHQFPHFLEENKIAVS
Method: universal PBM
Molecule type: double-stranded DNA, one strand shown
Medium: in vitro
Concentration: 600 nM
Notes: 8-mer, flanks averaged, mean of replicates
Direction: higher = stronger binding
Sequence	E-score
AGGTCCCG	-0.358
GCGCGGAC	-0.291
CACAACAA	0.143
CCCGCTAG	-0.184
CCGGATCA	-0.186
GAAACGCC	-0.107
ATAGCTTC	0.0828

Block 3
Target: Histone acetyltransferase KAT6A, winged helix 2, GST fusion (KAT6A, Homo sapiens, UniProt Q92794, residues 85-181)
Method: protein binding microarray
Molecule type: double-stranded DNA, one strand shown
Medium: in vitro
Concentration: not given
Notes: 8-mer, flanks averaged, mean of 2 arrays, mostly near background
Relative to: not given
Direction: higher = stronger binding
Construct (chain): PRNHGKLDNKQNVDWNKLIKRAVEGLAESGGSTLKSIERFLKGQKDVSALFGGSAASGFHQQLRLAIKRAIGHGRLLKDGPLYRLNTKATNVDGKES
Sequence	E-score
CGTGTCCA	0.126
TAGACTGA	-0.16
GCTAGGTA	-0.097
AACTGCAT	0.124

Single results of other studies
Substance	target	test	system	setting	how to read	endpoint	value
PhoQ, residues 284 288 289 292 302 303 ALSMDL	PhoP, residues 12 14 15 18 19 GMGLL (Escherichia coli, UniProt P23836)	Sort-seq, refers to: YFP reporter	E. coli	PhoQ-PhoP variant library, with: 10 µM Mg2+	relative to: high Mg2+ state, higher = stronger signaling	fold induction	1.98
